Measured values collected from several papers.
Lines come from different studies, so protocols differ. Values joined by “and” are separate records of one study, mostly repeats; a detail may differ. ± marks the error that the study gave.
UDP-3-O-acyl-N-acetylglucosamine deacetylase C40S: UDP-3-O-acyl-N-acetylglucosamine deacetylase (Pseudomonas aeruginosa, UniProt P47205, C40S)

Structure (SMILES)	target	assay	test system	conditions	scale	measurement	result
O=[N+]([O-])c1ccc(OP(=O)(OC2CCCCC2)OC2CCCCC2)cc1	had (Sphingobium sp. TCM1, UniProt A0A077JBW9)					Km	110 ± 30 µM
CN(CC(=O)O)C(=N)NP(=O)(O)O	Creatine kinase U-type, mitochondrial (CKMT1A, Homo sapiens, UniProt P12532, D359N)	substrate, Kinase-Glo luminescence		pH 7.0, reverse reaction, D321N mutant, added: second substrate in excess		kcat	12 ± 5 s⁻¹
COC(=O)[C@@]1(O)C[C@H]2O[C@]1(C)n1c3ccccc3c3c4c(c5c6ccccc6n2c5c31)C(=O)NC4	Mitogen-activated protein kinase 3 (MAPK3, Homo sapiens, UniProt P27361)	ADP-Glo		2.91 µM, added: substrate MBP		remaining activity	114%
O=C(O)COP(=O)(O)O	TPI1 (Saccharomyces cerevisiae, UniProt P00942, Y208S)	enzyme activity, competitive inhibitor, GPDH/NADH-coupled		pH 6.4, 25 °C, ionic strength 0.1 NaCl, added: glyceraldehyde 3-phosphate substrate	reference: mutant over wild type	Ki ratio	63
CC[C@H](C)[C@H](NC(=O)[C@H](Cc1c[nH]cn1)NC(=O)[C@@H]1CSSC[C@H](NC(=O)[C@H](Cc2c[nH]cn2)NC(=O)[C@H](Cc2ccccc2)NC(=O)CN2CCCN3CCN(CC(=O)O)CCCN(CC2)Cc2cccc(n2)C3)C(=O)N2C[C@H](O)C[C@H]2C(=O)N[C@@H](Cc2ccc(O)c(Cl)c2)C(=O)N[C@@H](CC(=O)O)C(=O)N[C@@H](CC(C)C)C(=O)N1)C(=O)N[C@@H](CC(C)C)C(=O)NCc1ccc(CNC(=O)CN2CCCN3CCN(CC(=O)O)CCCN(CC2)Cc2cccc(n2)C3)cc1	Fgg/Fga/Fgb, fibrin form (Rattus norvegicus, UniProt P02680+P06399+P14480)	ex vivo biodistribution	Wistar rat, arterial thrombus model	2 h		clot-to-organ ratio	1
COc1cc2c3cc1Oc1cc(ccc1O)C[C@@H]1c4c(cc(OC)c(O)c4Oc4ccc(cc4)C[C@@H]3N(C)CC2)CC[N+]1(C)C	Chrnd/Chrna1/Chrne (Mus musculus, UniProt P02716+P04756+P20782)	two-electrode voltage clamp	mouse hemidiaphragm	up to 0.5 µM		voltage sensitivity change	no effect
O=C(c1ccc(Cl)cc1)N1CCN2C(=O)N(OC(=O)N3CCOc4ccccc43)C(=O)C2C1 (stereo not shown)	Dipeptidyl peptidase 2 (Homo sapiens, UniProt Q9UHL4)	MS-based ABPP	SW-620 conditioned medium	10 µM, 1 h, 37 °C	reference: compound over DMSO, lower = more inhibition	peptide ratio	0.89 and 0.84 and 1 and 0.94 and 1.41 and 1.28 and 0.99
CC1(C)C(C=C(Cl)Cl)C1C(=O)OCc1cccc(Oc2ccccc2)c1 (stereo not shown)	uncharacterized protein (Anopheles coluzzii, UniProt A0A6E8VQK1)	enzyme activity, inhibitor	Sf9 cell homogenate	4.94 µM, 0.1667 h, added: α-naphthyl acetate substrate	reference: no inhibitor	remaining activity	97.1%
COc1cc(Nc2ncc(F)c(Nc3ccc4c(n3)NC(=O)C(C)(C)O4)n2)cc(OC)c1OC	Aurora kinase B (AURKB, Homo sapiens, UniProt Q96GD4)	KINOMEscan		10 µM		inhibition	100%
O=C(Nc1cnccc1Cl)N1CCN(Cc2ccc3c(c2)OC(F)(F)O3)CC1	Alpha-1A adrenergic receptor (Adra1a, Rattus norvegicus, UniProt P43140)	binding		10 µM, added: [3H]prazosin		inhibition	17%
O=C1CC(C(=O)O)NC(=O)N1 (stereo not shown)	Dihydroorotate dehydrogenase A (fumarate) (pyrDA, Lactococcus lactis subsp. cremoris, UniProt A2RJT9, L71F/V133T)	flavin reduction, stopped-flow	Lactococcus lactis	pH 8.5, 4 °C		kred	0.001 ± 0.0001 s⁻¹
CC(=C\C=C\C(C)=C\[C@H](O)[C@@H](O)C[C@H](C)O)/C=C(C)/C=C/C(=O)O[C@H]1CCCC(=O)O[C@@H]([C@@H](C)C/C(C)=C/[C@@H](C)[C@H](O)C[C@@H](C)O)C/C=C(\C)C[C@@H]1C	Protein transport protein Sec61 subunit alpha isoform 1 (Homo sapiens, UniProt P61619)	Sec61-dependent translocation, inhibitor, measured: CD4 signal peptide-FLuc reporter	HEK293	concentration not given, 6 h		FLuc/RLuc ratio	0.471
NC[C@H](NC(=O)c1ccc(-c2ccc(Br)cc2)cc1)C(=O)NO	UDP-3-O-acyl-N-acetylglucosamine deacetylase C40S	isothermal titration calorimetry		concentration not given, 298 K, untagged protein, averaged		entropy change (ΔS)	0.0342 kcal/mol/K
C/C=C1/C(=O)C[C@H]2[C@@H]3CCC4=CC(=O)CC[C@]4(C)[C@H]3CC[C@]12C	Nuclear receptor subfamily 1 group I member 3 (Homo sapiens, UniProt Q14994)		cells	concentration not given		activity	inactive
CN(C(=O)n1cnc(-c2ccc[n+]([O-])c2)c1)C1CCCCC1	ryanodine receptor RyR3, rat	binding		50 µM, added: [3H]ryanodine		inhibition	9%
CN1CCN(c2cc(-c3ccncc3)c(-c3ccc4ccccc4c3)nn2)CC1	Sphingosine 1-phosphate receptor 4 (S1PR4, Homo sapiens, UniProt O95977)	agonist, FLIPR		12.5 µM		activation	1.9%
O=C(NO)[C@H]1COC(c2ccc(OC(F)(F)F)c(Cl)c2)=N1	UDP-3-O-acyl-N-acetylglucosamine deacetylase C40S	bio-layer interferometry		298 K		koff	0.0452 s⁻¹

Structure (SMILES)	target	assay	test system	conditions	scale	measurement	result
CC(CCn1ccc(-c2ccc(-c3cn(CC45CC(C4)C5)nn3)cc2)cc1=O)(C(=O)NO)S(C)(=O)=O (stereo not shown)	UDP-3-O-acyl-N-acetylglucosamine deacetylase (Pseudomonas aeruginosa, UniProt P47205)				reference: 1	residence time	~3 fold
Cc1nn(C)cc1-c1nc2c(N3CCN(Cc4ccc(Cl)cc4)CC3)c(Cl)cnc2[nH]1	BMP-2-inducible protein kinase (BMP2K, Homo sapiens, UniProt Q9NSY1)	KINOMEscan		1 µM	reference: DMSO control	remaining binding	6.7%
c1cncc([C@@H]2CCCN2)c1	Chrnd/Chrna1/Chrne (Mus musculus, UniProt P02716+P04756+P20782, G173K/S470W)	single-channel kinetics		K chain side site		kon	1.9e+09 M⁻¹ s⁻¹
C[C@]12CC[C@H]3[C@@H](CCC4=CC(=O)CC[C@@]43C)[C@@H]1CC[C@@H]2C(=O)CO	Cytochrome P450 11B2, mitochondrial (CYP11B2, Homo sapiens, UniProt P19099)	substrate		100 µM, 37 °C, phospholipid vesicles		11β-hydroxylation product formation rate	34.2 ± 1.1 min⁻¹
CC[C@H](C)[C@H](NC(=O)CNC(=O)[C@@H](N)CCCCN)C(=O)N[C@@H](CC(C)C)C(=O)N[C@@H](CCCCN)C(=O)N[C@@H](CC(N)=O)C(=O)N[C@@H](CCCNC(=N)N)C(=O)N[C@@H](C)C(=O)N[C@@H](CCCNC(=N)N)C(=O)N[C@@H](CCCNC(=N)N)C(=O)N[C@@H](CCC(=O)O)C(=O)N[C@@H](CCCNC(=N)N)C(=O)N1CCC[C@H]1C(=O)NCC(=O)N[C@@H](CCCCN)C(=O)N[C@@H](CCCNC(=N)N)C(=O)N[C@@H](CCCCN)C(=O)N[C@H](C(=O)N[C@H](C(=O)N[C@H](C(=O)N[C@@H](Cc1c[nH]c2ccccc12)C(=O)N1CCC[C@H]1C(=O)N[C@@H](CCC(=O)O)C(=O)N[C@@H](CCC(=O)O)C(=O)NCC(=O)N[C@@H](CCCCN)C(=O)N[C@@H](CC(C)C)C(=O)N[C@@H](CCCNC(=N)N)C(=O)N[C@@H](CCC(=O)O)C(=O)N[C@@H](Cc1ccc(O)cc1)C(=O)N[C@@H](Cc1ccccc1)C(=O)N[C@@H](Cc1ccc(O)cc1)C(=O)N[C@@H](Cc1ccccc1)C(=O)N[C@@H](CCC(=O)O)C(=O)N[C@@H](CC(C)C)C(=O)N[C@@H](CC(=O)O)C(=O)N[C@@H](CCC(=O)O)C(=O)N[C@H](C(=O)N[C@@H](CCC(=O)O)C(=O)N[C@@H](CCCNC(=N)N)C(=O)N[C@H](C(=O)N[C@@H](CC(N)=O)C(=O)N[C@H](C(=O)O)C(C)C)C(C)C)[C@@H](C)O)[C@@H](C)O)C(C)C)[C@@H](C)O	Serine/threonine-protein phosphatase PP1-alpha catalytic subunit (PPP1CA, Homo sapiens, UniProt P62136)	ITC		concentration not given, 25 °C, PP1α 7-330		ΔG of binding	-11.6 ± 0.2 kcal/mol
COc1ccc(N2C(=O)N(c3c(C)cccc3Cl)Cc3cnc(Nc4ccc(C5CCN(C)CC5)cc4OC)nc32)nc1	Protein kinase C iota type (PRKCI, Homo sapiens, UniProt P41743)	kinase activity, inhibitor		0.5 µM, kinase PKC-IOTA		inhibition	2.41%
CC[C@H](C)[C@H](NC(=O)[C@@H](NC(=O)[C@H](CC(C)C)NC(=O)[C@H](CC(N)=O)NC(=O)[C@H](CC(=O)O)NC(=O)[C@H](CCC(=O)O)NC(=O)[C@@H](NC(=O)[C@@H](N)CCCNC(=N)N)[C@@H](C)CC)C(C)C)C(=O)N[C@H](C(=O)N[C@@H](CCCNC(=N)N)C(=O)O)[C@@H](C)CC	Epithelial sodium channel subunit gamma (Homo sapiens, UniProt P51170)	binding, bio-layer interferometry				kon	241 M⁻¹ s⁻¹
Nc1ccncc1	Voltage-dependent P/Q-type calcium channel subunit alpha-1A (Homo sapiens, UniProt O00555)	ion current, antagonist, automated patch clamp				IC30	> 30 µM
C[C@H]1CN(c2n[nH]c3nc(N[C@H]4CC[C@H](NS(=O)(=O)CCC(F)(F)F)CC4)ncc23)CCO1	Serine/threonine-protein kinase Chk1 (CHEK1, Homo sapiens, UniProt O14757)	inhibitor, Kinobeads competition profiling		0.16 µM	reference: vehicle	relative abundance	1.07
[2H]c1c([2H])c([C@]2([2H])CCCN2C(=O)C(C)(C)Oc2ccc3cn[nH]c3c2)c([2H])c([2H])c1C([2H])([2H])[2H]	Cyclin-dependent kinase 19 (CDK19, Homo sapiens, UniProt Q9BWU1)	KINOMEscan		1 µM	reference: DMSO control	remaining binding	98%
Cc1ccc(OP(=O)(Oc2ccc(C)cc2)Oc2ccc(C)cc2)cc1	Acylamino-acid-releasing enzyme (Apeh, Mus musculus, UniProt Q8R146)		mouse	oral		ED50	> 240 mg/kg
Clc1cc2c(cc1Cl)Oc1cc(Cl)c(Cl)cc1O2	Aryl hydrocarbon receptor (Ahr, Rattus norvegicus, UniProt P41738)	reporter gene, agonist		96-well format		Hill slope	41.9
O=C(O)c1cccc(C(O)P(=O)(O)O)n1 (stereo not shown)	Metallo-beta-lactamase type 2 (blaNDM-1, Klebsiella pneumoniae, UniProt C7C422)	inhibitor		added: nitrocefin		dissociation half-life	8.3 ± 1 min
O=C(Nc1cccnn1)N1CCC(=Cc2cccc(Oc3ccc(C(F)(F)F)cn3)c2)CC1	Prostaglandin E2 receptor EP3 subtype (PTGER3, Homo sapiens, UniProt P43115)	radioligand binding, inhibitor		50 µM, human, added: [3H]prostaglandin E2		inhibition	44%
CCOC(=O)COc1ccc2c(=O)c3ccccc3oc2c1	Acetylcholinesterase (ache, Electrophorus electricus, UniProt O42275)	enzyme activity		0.84 µM, added: substrate 0.43 mM	higher = faster reaction	reaction velocity	0.0007 a.u.
CC12CCC(CC1)C(C)(C)O2	1,8-cineole 2-endo-monooxygenase (cinA, Citrobacter braakii, UniProt Q8VQF6)	isothermal titration calorimetry		wild type		ΔG	-6.8 kcal/mol
O=P(O)(O)OC[C@H]1C[C@@](O)(CO)[C@@H](O)[C@H](O)[C@@H]1O	2-epi-valiolone synthase (Actinosynnema mirum, UniProt C6WFL3)	phosphate release		100 µM		apparent Vmax	1.8 ± 0.2 µM/min

Repeated from above:
Structure (SMILES)	target	assay	test system	conditions	scale	measurement	result
O=C(O)c1cccc(C(O)P(=O)(O)O)n1 (stereo not shown)	Metallo-beta-lactamase type 2 (blaNDM-1, Klebsiella pneumoniae, UniProt C7C422)	inhibitor		added: nitrocefin		dissociation half-life	8.3 ± 1 min
O=C(Nc1cccnn1)N1CCC(=Cc2cccc(Oc3ccc(C(F)(F)F)cn3)c2)CC1	Prostaglandin E2 receptor EP3 subtype (PTGER3, Homo sapiens, UniProt P43115)	radioligand binding, inhibitor		50 µM, human, added: [3H]prostaglandin E2		inhibition	44%
CCOC(=O)COc1ccc2c(=O)c3ccccc3oc2c1	Acetylcholinesterase (ache, Electrophorus electricus, UniProt O42275)	enzyme activity		0.84 µM, added: substrate 0.43 mM	higher = faster reaction	reaction velocity	0.0007 a.u.
